Experimental data from different studies.
Parts stem from different laboratories: compare values within a part only. Changes are numbered by the printed parent chain.

Sample 1
Target: Phosphate system positive regulatory protein PHO4, full length, GST-tagged (PHO4, Saccharomyces cerevisiae, UniProt P07270, residues 1-312)
Method: competition protein-binding microarray
Form: double-stranded DNA, one strand shown
Sample: in vitro
Tested at: 2 µM
Setting: whole 60-bp probe, lowest competitor level
Together with: Cbf1 competitor, 0.05 µM
Reading: higher = stronger binding
Quantity: fluorescence intensity
Residues (chain): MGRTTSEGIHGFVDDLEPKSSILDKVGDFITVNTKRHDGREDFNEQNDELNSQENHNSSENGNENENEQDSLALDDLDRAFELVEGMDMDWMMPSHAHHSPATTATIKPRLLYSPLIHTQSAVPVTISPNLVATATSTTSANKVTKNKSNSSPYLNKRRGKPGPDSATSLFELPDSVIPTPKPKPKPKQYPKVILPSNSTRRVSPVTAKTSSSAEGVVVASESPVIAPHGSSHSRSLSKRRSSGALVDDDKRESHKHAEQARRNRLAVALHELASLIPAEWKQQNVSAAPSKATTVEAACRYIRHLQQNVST
CTTCTGTAAATTTGCAACGTGGGTGGACGCGCCCCGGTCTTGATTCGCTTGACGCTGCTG: 14100 a.u.
TAACGGCTATCCCATCACGTTCTCACCGAGGAGACCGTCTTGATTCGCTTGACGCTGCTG: 11700 a.u.
TATTTTACTATCTTACACGTGTTGGTAACATAAACGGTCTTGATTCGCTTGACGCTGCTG: 19200 a.u.
CACTGGCTGCTCCATCACGGGTCTCGAGGCGGAGACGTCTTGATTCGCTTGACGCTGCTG: 5920 a.u.
CAGCTGGTTCTAACTCAGCTGATGGAACCTGCTTTCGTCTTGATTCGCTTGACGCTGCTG: 2580 a.u.
AAAGCGGTAATTTTTCACGTGGTTTCACATATCTATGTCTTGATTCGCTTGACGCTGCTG: 15000 a.u.
CACATCTCCCTTGCGCCCGTGCTTTTATATATATAAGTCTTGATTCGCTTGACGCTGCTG: 9390 a.u.
TCTAATGGTACCCCAAATATCTTATTATGAGTTTTAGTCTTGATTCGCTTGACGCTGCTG: 2570 a.u.
TGTACCATAGGTGTCCACATGTAAAGACAATGGTTCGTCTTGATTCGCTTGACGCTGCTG: 6920 a.u.
TATTTTTTCACCATCAACGTGGTGATTCACTTATTCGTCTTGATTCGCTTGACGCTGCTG: 14500 a.u.
AAGTGGTTACAAATTCACGTGCTGTGATTGGAAACTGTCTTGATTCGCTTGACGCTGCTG: 13600 a.u.
ATCTTATTGATGTATTTCATATTATTGTTTTTTTTAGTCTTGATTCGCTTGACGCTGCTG: 3990 a.u.
CTTCTGTAAATTTTTCACGTGTGTTGACGCGCCCCGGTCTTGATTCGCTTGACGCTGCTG: 10200 a.u.
TTTTATGCGATATTACATGTGTCAATAGCAAAAGGGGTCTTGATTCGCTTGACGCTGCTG: 7470 a.u.
ACAACTATAATGGATGACATGATGAATATGTAGTGGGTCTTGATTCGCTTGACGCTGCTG: 6040 a.u.
TTGAGATACCTCAGTGATGTGGCACAGCGTAAGGAGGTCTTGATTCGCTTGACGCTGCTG: 5490 a.u.
AAAACAAGATTCTCCACCGTGATGGAAAACCTCAAAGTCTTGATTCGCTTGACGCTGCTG: 4780 a.u.
TTTGCAGTGTAATCTCACGTGCAAAAGACTGAGTAAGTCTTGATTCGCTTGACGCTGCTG: 12900 a.u.
TGTAAGTTGCAATCGCACGTGTGTTGTAGCCATGTAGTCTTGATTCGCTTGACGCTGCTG: 14800 a.u.
GCATTTGTTGGCCATCACGTGAGCCGGGATCTTAAGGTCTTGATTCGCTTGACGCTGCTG: 12100 a.u.
TTCAATGGGACCCATCACGGCCATGACGATATCCAGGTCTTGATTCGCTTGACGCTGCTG: 3740 a.u.
CGTCCTAGTGATTTTCACGTGTCGTCCATGAGGAAGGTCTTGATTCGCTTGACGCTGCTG: 12500 a.u.
CTAACGAAGGTTTGTGGTGTGGGTGACAAGCCAAGTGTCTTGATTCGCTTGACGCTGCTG: 5020 a.u.

Sample 2
Target: ABI1, truncated, D143A, DHFR fusion (Arabidopsis thaliana)
Method: DHFR PCA, deep sequencing
Sample: yeast
Setting: methotrexate growth selection, single substitutions
Together with: (+)-ABA 200 µM
Reference: wild-type fitted maximum
Reading: higher = stronger binding
Quantity: relative binding score
Starting sequence: PYL1, truncated, DHFR fusion (Arabidopsis thaliana); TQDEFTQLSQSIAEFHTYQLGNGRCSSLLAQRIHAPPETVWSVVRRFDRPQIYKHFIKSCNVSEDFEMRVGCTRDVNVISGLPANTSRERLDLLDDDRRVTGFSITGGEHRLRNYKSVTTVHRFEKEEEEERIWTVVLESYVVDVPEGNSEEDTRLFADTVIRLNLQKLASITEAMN
F47R: -5.01%
S59V: 87.1%
G71S: 67.9%
Y141A: 1.37%
E129C: 106%
K116G: 52.6%
D3G: 93.8%
G81N: 24.3%
Q10T: 98.6%

Sample 3
Target: Histone acetyltransferase KAT6A, winged helix 1, GST fusion (KAT6A, Homo sapiens, UniProt Q92794, residues 1-85)
Method: protein binding microarray
Form: double-stranded DNA, one strand shown
Sample: in vitro
Tested at: not given
Setting: 8-mer, flanks averaged, mean of 2 arrays, mostly near background
Reference: not given
Reading: higher = stronger binding
Quantity: E-score
Construct (chain): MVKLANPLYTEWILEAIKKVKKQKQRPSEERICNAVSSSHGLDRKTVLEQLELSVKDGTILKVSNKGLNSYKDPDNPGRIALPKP
AGTACTCC: 0.00611
ATCTTATA: -0.118
CTTATATA: -0.152
GCTTTGGA: 0.0785
CATTAACG: -0.038
CCTGGGAA: -0.00577
ATGAACAC: -0.255
CTAGTGTA: -0.0281
TGGGCTAA: -0.179
AAGGCTAT: -0.0908
CGGTGACA: -0.0677
AGGAAATA: -0.254
ACAGTTTC: -0.158
ATTAGATG: -0.231
CGCCCATA: 0.145
ATCGGTTA: 0.0813
GGTGATGA: -0.127

Sample 4
Target: CCNB2, cyclin fold, Cln2 fusion (human)
Method: yeast growth competition, sequencing
Sample: yeast
Setting: weak parent motif
Reference: not given
Reading: higher = stronger binding
Quantity: normalised enrichment score
Starting sequence: RBL1 docking peptide (human); GSAKRRLFGEDPP
GSAKRRLFGQDPP [E10Q]: -0.215
GSAKRRLFAEDPP [G9A]: 0.5
LSAKRRLFGEDPP [G1L]: 0.542
GSAKRRLFNEDPP [G9N]: 0.634
GSAKRRLKGEDPP [F8K]: 0.486
GIAKRRLFGEDPP [S2I]: 0.31
GSAKRRLFGGDPP [E10G]: -0.173
GSAKRRLFGEDPR [P13R]: 0.0837
GSAKRRLFGEDSP [P12S]: 0.312
GSAKRRDFGEDPP [L7D]: -0.319
GSAKRRLNGEDPP [F8N]: -0.131
GSAKRRVFGEDPP [L7V]: 0.455
GSAKSRLFGEDPP [R5S]: -0.0414
GSAKRRLFGHDPP [E10H]: 0.737
GSAKRRTFGEDPP [L7T]: -0.196
GSAKLRLFGEDPP [R5L]: -0.166
GSAKYRLFGEDPP [R5Y]: -0.325
GSAKHRLFGEDPP [R5H]: 0.319

Sample 5
Target: RNA binding protein fox-1 homolog 2, RRM domain, GST-SBP tag (RBFOX2, Homo sapiens, UniProt O43251-10, residues 100-194)
Method: RNA Bind-n-Seq
Form: RNA
Sample: in vitro
Tested at: 365 nM
Setting: natural RNA segment, single round, ends assumed
Reference: no-protein control
Reading: higher = stronger binding
Quantity: RBNS enrichment (R)
Target sequence (chain): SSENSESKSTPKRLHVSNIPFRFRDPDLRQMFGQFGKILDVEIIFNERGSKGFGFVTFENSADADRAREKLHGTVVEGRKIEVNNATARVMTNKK
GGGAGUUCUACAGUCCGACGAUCCAUGUUCAUUCUCAUGUUUUUUGUCAGUGUGACCUUCUCAUGCCCUGUCAUGAUAGAGCUGUAAUUCUGGUGUCACACGGAUCACUUACUGGAGGUGUAUAAUAUGAGAUUGGAAUUCUCGGGUGCCAA: 0.487
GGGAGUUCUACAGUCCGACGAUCGAAGACAUCUAGAAACAUUACACCACACACACCGUCAUCACAUUUUCACAUGCUCAAUUGAUAUUUUUUGCUGCUUCCUCGGCCCAGGGAGAAAGCAUGUCAGGACAGAGUGGAAUUCUCGGGUGCCAA: 0.75
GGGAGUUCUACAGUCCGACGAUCUUAGCACUGGGGACACUUAAAGUCUCUGCUGUCUAUGGAGUUGAUUUGGAAAUACCUUCCUGGCCCCGCCCCUACCCCUUCUUUUUGGUUUUGACAUCACCCAUUUCCAAUGGAAUUCUCGGGUGCCAA: 0.292
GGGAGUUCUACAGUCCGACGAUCCUGCCUUCUUUGUUGGGGGGAGAAGGGGGAAGGAAAUGGAACAAGUUGUGUUUGUGUUAGCAUGUGGGUGAUGUAAACUACAAAUUGGGAGCUGUUCCGACCCCCGCUCCUGGAAUUCUCGGGUGCCAA: 19.2
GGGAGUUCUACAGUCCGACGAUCCUGCUGGGGCCUGGCUGGGCCCAAAGCUCCAAGCCUCACUGCCUUCCUGGGGUCCUAAUUAACUCGGCCUACUCAAUGAGAACGUAACAUGCUUAUUGAAUGUAUAGCCGUGGAAUUCUCGGGUGCCAA: 0.382
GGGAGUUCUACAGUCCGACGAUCGAGGUGCUUCAACCCCACCUACUCUGCCUUCCACCUCUCCCCAACCAUCACUGUAAUUUAUGGCCCCCGCCGUGGGGCAGCCUAGCCCUUGUGUCUGUGUAUAUACUGUGUGGAAUUCUCGGGUGCCAA: 0.64
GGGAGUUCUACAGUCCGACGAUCCACAGACCUUCGAUGGCGUUUGAGUCCAACACCUUCCAAGAACAACAAAACCAUAUCAGUGUACUGUAGCCCCUUAAUUUAAGCUUUCUAGAAAGCUUUGGAAGUUUUUGUGGAAUUCUCGGGUGCCAA: 0.477
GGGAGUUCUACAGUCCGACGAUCUCCCAGGAAGCAGGGAGAGUUGGGGAAGGCAAGAUUGGAAAGACAGGAAGACCAAGGCCUCGGCAGAACUCUCUGUCUUCUCUCCACUUCUGGUCCCCUGUGGUGAUGUGUGGAAUUCUCGGGUGCCAA: 0.459
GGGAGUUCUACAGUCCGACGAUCCAGCCCCAGCCCGGGUCCAUUGCCCACAUUCUCUGUCUCCUUCUCGUCGGUCUACCCCACUACCUCCAGGGUUUUGCUUUGUCCUUUUGUGACCGUUAGUCUCUAAGCUUUGGAAUUCUCGGGUGCCAA: 0.365
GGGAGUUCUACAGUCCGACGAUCUUUGAGACAUCCCCAUUUCUAUGUAGGUGGGAUUUUGCUUUCAUUUCUGAUUUAAAUUAGCUCCUUGUGUCCUUGCUUUAUCUUUGGGGCAUCUUUAGUUCCAAGAACUGUGGAAUUCUCGGGUGCCAA: 1.25
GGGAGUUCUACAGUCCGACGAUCUGGGAAUCUUCAGAACCCCCCUGUAAGAGACAGACAUGAGAGACAAGCAUCUUCUUUCCCCCGCAAGUCCAUUUUAUUUCCUUCUUGUGCUGCUCUGGAAGAGAGGCAGUUGGAAUUCUCGGGUGCCAA: 3.26
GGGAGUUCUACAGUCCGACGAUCUAAUCCCACUCAAUAGUAUCAUUACAGUUUUCUGUAAGAGAAAAUAUUACUUAUUUAUCCCAGUAUUCCUAGCCUGUCAACAUAAUAAAUAUCGGAACAAAACCUGGUAAUGGAAUUCUCGGGUGCCAA: 0.966

A few entries again (sample 1):
TAACGGCTATCCCATCACGTTCTCACCGAGGAGACCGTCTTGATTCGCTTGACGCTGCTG: 11700 a.u.
TATTTTACTATCTTACACGTGTTGGTAACATAAACGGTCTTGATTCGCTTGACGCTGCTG: 19200 a.u.
CACTGGCTGCTCCATCACGGGTCTCGAGGCGGAGACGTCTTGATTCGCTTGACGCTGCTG: 5920 a.u.
CAGCTGGTTCTAACTCAGCTGATGGAACCTGCTTTCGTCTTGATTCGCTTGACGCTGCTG: 2580 a.u.
AAAGCGGTAATTTTTCACGTGGTTTCACATATCTATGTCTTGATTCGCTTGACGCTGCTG: 15000 a.u.
